Experimental data from different studies.
Parts stem from different laboratories: compare values within a part only. Several values in a cell are separate wells, animals, samples, runs or records.

Set 1 — host: mouse; sample: microsomes or S9; concentration: 2 µM; time: 0.5 h
Compound	remaining compound [%]
O=C(Cn1c2ccccc2c2ncn(Cc3nc(C4CC4)no3)c(=O)c21)NC1CCCCC1	6.65
O=c1[nH]cnc2c1nnn2Cc1cc(F)cc(F)c1	89.8
CCOC(=O)c1cnc2nc(C3CCC3)nn2c1C	0.268
CN(C)S(=O)(=O)c1ccc(C(=O)Nc2ccncc2)o1	25.2
c1ccc2c(c1)oc1c(N3CCN(Cc4ccc5c(c4)OCO5)CC3)ncnc12	14.2
CCOC(=O)C(C)n1nc(-n2cccn2)ccc1=O (centres unmarked)	0
COc1ccc(Cl)cc1-c1ccc2c(c1)c(C#N)cn2-c1ccc(F)cc1	77

Set 2 — read-out: ligand displacement; concentration: 10 µM
Target: D(4) dopamine receptor (DRD4, Homo sapiens, UniProt P21917)
Chain of UniProt P21917 (whole entry, looked up): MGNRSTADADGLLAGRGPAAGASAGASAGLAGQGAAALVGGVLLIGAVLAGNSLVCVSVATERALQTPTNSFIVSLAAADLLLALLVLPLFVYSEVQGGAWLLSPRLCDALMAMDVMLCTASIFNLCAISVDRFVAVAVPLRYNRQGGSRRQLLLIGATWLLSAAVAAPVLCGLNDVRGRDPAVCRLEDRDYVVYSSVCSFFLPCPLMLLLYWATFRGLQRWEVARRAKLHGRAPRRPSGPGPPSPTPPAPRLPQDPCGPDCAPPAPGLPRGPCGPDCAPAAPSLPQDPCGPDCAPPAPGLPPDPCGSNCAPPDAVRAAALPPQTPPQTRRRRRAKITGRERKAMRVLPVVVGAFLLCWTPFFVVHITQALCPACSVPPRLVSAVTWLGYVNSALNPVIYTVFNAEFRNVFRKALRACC
SMILES	inhibition
Cc1noc([C@H]2C[C@@H](c3ccc(C(F)(F)F)cc3)CN(C(=O)N3CCS(=O)(=O)C3)C2)n1	6.3%
COc1ccc2cc(OCC3(C(=O)O)CN(C(=O)c4ccc(F)cc4)C3)ccc2c1	8.76%
CN1CCN(C(=O)C(C)(C)c2ccc(C(=O)Nc3cn4cc(-c5cc(C(C)(C)C)cc(C(C)(C)C)c5)ccc4n3)cc2)CC1	34.8%
CNC(=N)NCCC[C@H](NC(=O)[C@H](CC(C)C)NC(=O)NNC(=O)[C@H](Cc1ccccc1)NC(=O)[C@H](CO)NC(=O)[C@H](CC(N)=O)NC(=O)[C@@H](Cc1ccncc1)NC(=O)[C@H](N)Cc1ccc(O)cc1)C(=O)N[C@@H](Cc1ccccc1)C(N)=O	-13.5%
C[C@H](c1ccnc(Nc2nc3ccc(-c4cc(N(C)C)ncn4)cc3[nH]2)c1)N1CCN(C(=O)CC(F)(F)F)CC1	8.17%
O=c1nc(-c2ccccn2)sc2ccccc12	10.1%
C[C@@H]1CN(c2cc(-c3n[nH]c4ccc(OC5(C)CC5)cc34)ncn2)C[C@H](C)O1	-4.87%
CC[C@H](CC(=O)O)n1c(=O)c2ncccc2n(Cc2cn(C)c3cc(C)cc(C)c23)c1=O	-1.4%
CC(=O)N1CCC(c2ccc(C(=O)NC3=NCCN3)cc2C(F)(F)F)CC1	-5.64%
CN1CCN(c2cnc3c(C4CCN(C(=O)c5ccc(OC(F)(F)F)cc5N)CC4)ncnc3c2)CC1	12.7%
CCc1ccccc1C(=O)Nc1n[nH]c2c(C)c(F)c(C3C(C#N)=C(C)N(C)C(C)=C3C#N)cc12	-0.18%
CC1=C(C#N)C(c2ccc3[nH]nc(C)c3c2)C(C#N)=C(C)N1	24%
c1ccc(N2CCN(Cc3nc4ccccc4[nH]3)CC2)nc1	61.5%
NS(=O)(=O)c1cc(NC(=O)Cc2ccccc2)ccc1Oc1cccc(Cl)c1	28.4%

Set 3 — organism: Sarcocystis neurona; read-out: parasite growth; concentration: concentration not given; notes: second screen; reference: untreated
Structure (SMILES)	log2 fold change
COc1ccccc1N1CCN(CCCNc2cc(=O)n(C)c(=O)n2C)CC1.Cl	0.39
Cl.NC(N)=NC(=O)c1nc(Cl)c(N)nc1N.O	0.25
CN1[C@@H]2CC[C@H]1C[C@@H](OC(c1ccccc1)c1ccccc1)C2.CS(=O)(=O)O	0.3
Cc1sc(N)c(C(=O)c2cccc(C(F)(F)F)c2)c1C	0.21
C[C@]12C=CC(=O)C=C1CC[C@@H]1[C@@H]2[C@@H](O)C[C@@]2(C)[C@H]1CC[C@]2(O)C(=O)COC(=O)CCC(=O)[O-].[Na+]	0.19

Set 4 — cell line: mouse MPNST tumor cells; technique: high-content immunofluorescence imaging; refers to: nuclear SOX9; concentration: 10 µM; time: 12 h; notes: mean of 2 replicates; reference: DMSO control; reading: higher = more nuclear SOX9
Structure (SMILES)	nuclear SOX9 intensity
CCOc1ccc2nc(S(N)(=O)=O)sc2c1	70.4 % of DMSO
CN[C@@H]1[C@@H](O)[C@@H](O[C@@H]2[C@@H](O)[C@H](O[C@H]3OC(CN)=CC[C@H]3N)[C@@H](N)C[C@H]2N)OC[C@]1(C)O	104 % of DMSO
Cc1cc(C)cc(-c2cnc3cc(Cl)c(-c4cccc(O)c4)cc3c2OCCCN)c1	205 % of DMSO
CCC(=O)NCC[C@@H]1CCc2ccc3c(c21)CCO3	99.3 % of DMSO and 110 % of DMSO
Cc1nc2cnc3ccc(C#Cc4cccnc4)cc3c2n1-c1ccc(C(C)(C)C#N)cc1	111 % of DMSO

Other studies, line by line
Structure (SMILES)	test system	conditions	quantity	result
CCCN1C(=O)[C@H](CC(C)C)NC(=O)[C@@H](N(C)C(=O)[C@H](CC2CCC2)NC(=O)[C@@H]2C[C@@H](F)CN2C(=O)[C@@](C)(O)C(F)(F)F)CCCCNC(=O)C2(CC2)NC(=O)[C@@H]1Cc1cc(Cl)ccc1Cl	mouse NCI-H1048 xenograft	iv, 100 mg/kg once daily, day 4	tumour volume	290 mm3 and 280 mm3 and 339 mm3 and 208 mm3 and 184 mm3 and 358 mm3 and 364 mm3 and 318 mm3

Repeated from above (set 2):
SMILES	inhibition
C[C@H](c1ccnc(Nc2nc3ccc(-c4cc(N(C)C)ncn4)cc3[nH]2)c1)N1CCN(C(=O)CC(F)(F)F)CC1	8.17%
CNC(=N)NCCC[C@H](NC(=O)[C@H](CC(C)C)NC(=O)NNC(=O)[C@H](Cc1ccccc1)NC(=O)[C@H](CO)NC(=O)[C@H](CC(N)=O)NC(=O)[C@@H](Cc1ccncc1)NC(=O)[C@H](N)Cc1ccc(O)cc1)C(=O)N[C@@H](Cc1ccccc1)C(N)=O	-13.5%
Cc1noc([C@H]2C[C@@H](c3ccc(C(F)(F)F)cc3)CN(C(=O)N3CCS(=O)(=O)C3)C2)n1	6.3%
